Measurements of several laboratories.
Every numbered part comes from another study and shows a few of its results, in no order. Changes are numbered by the printed parent chain.

Series 1 — method: RNA Bind-n-Seq; form: RNA; sample: in vitro; concentration: 365 nM; relative to: no-protein control; direction: higher = stronger binding; endpoint: RBNS enrichment (R)
Target: RNA binding protein fox-1 homolog 2, RRM domain, GST-SBP tag (RBFOX2, Homo sapiens, UniProt O43251-10, residues 100-194)
Setting: natural RNA segment, single round, ends assumed
Shared flanks, not repeated: GGGAGUUCUACAGUCCGACGAUC … UGGAAUUCUCGGGUGCCAA
Construct (chain): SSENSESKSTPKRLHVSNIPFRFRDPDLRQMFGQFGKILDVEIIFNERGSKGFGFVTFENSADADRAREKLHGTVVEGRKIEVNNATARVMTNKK
GGUGGGGGAGACAUAGCCCCACCAUGAGGACAUACAACUGGGAAAUACUGAAACUUGCUGCCUAUUGGGUAUGCUGAGGCCCCACAGACUUACAGAAGAAGUGGCCCUCC: 0.361
UAUAUAGAUUAUUGUAACCUUUCAACCUGAAAAUCAAGCAGUAUGAGAGUUUAGUUAUUUGUAUGUGUCACUAGUGUCUAAUGAAGCUUUUAAAAUCUACAAUUUCUUCU: 0.297
CUGUCUUUUUUACUUGUCUCAUUUUCUUUCACAGCACUGAGGUCUCACCAAAUUUUCUAAUUUUUAUUGUUAAUGACCGUUUUACUAUUAAAUAUAUGCAUGAUCCAAGC: 1.74
AGGAGCACAAGAGAGGAGCCUGUGGCCCCAUGCAGAUGAAAAGGACGGGCAGGGUCUCCUGAGCAGCAGGUGGCUCGAGGCGGUUAGCAGGCUCCAGCAGCUCCCUUCUU: 0.955
ACUUAGUGACAUUAUGUGUGACAGAAUUAAAUGACCGGGAAGAAAACGAAAACCACUUUCCAGUAAUAUAUGGCAUUGCUGUCAACAUUAAGACUGCAGAGAUUUACAGA: 0.302
UAAAUGUCCCGUAGAUUCUUCCUGUAGGAAAACGUUACAAGUAUUCAAAGACAGCUAGCUGUCACUGGUGCUCCCCCCAAAGCGUUUCACCCCCUUCUGUGCAUCUUAGG: 1.2
GUGGCACGUAUUGCUGUGUCUCCUCUCAGAGUGACAGUCAUAAAUACUGUCAAACAAUAAAGGGAGAAUGGUGCUGUUUAAAGUCACAUCCCUGUAAAUUGCAGAAUUCA: 0.963
UGAAGACUGAAGCCCCACAGUGGAAUUGGCAAACCCACUGCAGCCCCUGAGAGGAGGUCGAAUGGGUAAAGGAGCAUUUUUUUAUUCAGCAGACUUUCUCUGUGUAUGAG: 0.558

Series 2 — method: RNA Bind-n-Seq; form: RNA; sample: in vitro; concentration: not given; setting: RNA with constant flanks, ends assumed; relative to: input RNA pool; direction: higher = stronger binding; endpoint: bound/input enrichment
Target: RING finger protein unkempt homolog, zinc fingers 1-6, GST-SBP tag (UNK, Homo sapiens, UniProt Q9C0B0, residues 30-357)
UniProt Q9C0B0, sequence (30-357, looked up): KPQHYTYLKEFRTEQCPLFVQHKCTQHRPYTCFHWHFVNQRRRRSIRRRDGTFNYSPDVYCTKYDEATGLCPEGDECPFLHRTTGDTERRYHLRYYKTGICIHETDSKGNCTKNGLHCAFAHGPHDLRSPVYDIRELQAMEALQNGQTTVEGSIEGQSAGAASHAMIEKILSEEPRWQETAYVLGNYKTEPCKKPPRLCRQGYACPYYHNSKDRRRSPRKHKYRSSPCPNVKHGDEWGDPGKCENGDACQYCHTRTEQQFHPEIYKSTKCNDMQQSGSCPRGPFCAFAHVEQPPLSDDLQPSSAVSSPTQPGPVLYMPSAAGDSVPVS
Shared flanks, not repeated: GGGAGUUCUACAGUCCGACGAUC … CAACAGAGGAUUGAGCAUCA
GCCUUAUAUAGCAACAUACUUGGUGAGGAAAACACCUACCUGUGGCGCACAUCACUGUAUUCCGCUUCUUCUGCCAGUGCUGAAUUCUUCGCUGACAUUGCCCUGGCUCCUAUGGAAGCU: 0.236 ratio
CAAAAAAGCUAUGAGGAAGAGCUCCUCCCCUUCCUUGAGUAACUGCAACUCCGAUCUUGCCCGCAAAAUAUUUGGAAUUCCACUUGAUGAGCUGCAGCAGGGAGGACAUCCAGACAAUGA: 0.186 ratio
AGAUUAGGCCAUGAUCCCUACAGACUAACUCCGGAUCCCUAUAGGGUAUCACCUAGGCCCUACCGAACCGCACCCAGGUCCUAUAGGAUAGCACCUAGGCCAUACAGGUUAGCACCUAGA: 0.818 ratio
AAGCCUCCAAAGCGGAAGAAGGCAGACACUGAGGGGAAGUCCCCAUCUCACAGUUCUUCUAACCGACCUUUCACCCCACCUACCAGCACGGGUGGGUCCAAAUCCCCAGGCAGUUCAGGA: 0.15 ratio
CCCAAGAAACUCCAUUUGUGUGCCUUGUGUGGCAAGAACUUUUCUAAUAACUCAAACCUAAUCCGGCACCAGAGAAUACAUGCAGCAGAAAAGCUGUGUAUGGAUGUAGAGUGUGGUGAA: 0.289 ratio
AUGGAUUUCUGUAGCCAUACCAAAGCCAGGGUGUUUUCAUUCAUGCGGAUACUAGUAUUUACCGAUGUCUGACUACCUAACUUAAUUUUUGUUUUUGAACUUCUAAUUGGGGCCAGUGUA: 0.624 ratio
ACUGAAGAAGAUGAUGAUGGGGAAUUAGCACUGUGGUCCCCUGAAGUCAAGAUUGUUGAACCCGUAAAAGAUUGUAAAGGUUUGGGAUUCAGCAUUUUGGAUUACCAGGACCCUUUAGAU: 0.208 ratio
GAAGAGGUCCUCGAUCAUGGUGUUAGAAUUGACUGGAUAGUAACAGGUGGUCUGGUGGACCGCGGGGAGCAUGGCUCAGCACCAGAGCAGAGGCCCAGCCAGCCCUCUGCAGCCCAAACG: 0.271 ratio

Series 3 — method: DHFR PCA, deep sequencing; sample: yeast; added: (+)-ABA 4.8 µM; relative to: wild-type fitted maximum; direction: higher = stronger binding; endpoint: relative binding score
Target: ABI1, truncated, D143A, DHFR fusion (Arabidopsis thaliana)
Setting: methotrexate growth selection, single substitutions
Parent: PYL1, truncated, DHFR fusion (Arabidopsis thaliana); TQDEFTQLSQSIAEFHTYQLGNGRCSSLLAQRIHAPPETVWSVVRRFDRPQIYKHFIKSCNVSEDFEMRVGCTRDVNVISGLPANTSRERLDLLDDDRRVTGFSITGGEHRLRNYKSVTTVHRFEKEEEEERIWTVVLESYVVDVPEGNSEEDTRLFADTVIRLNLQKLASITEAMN; partner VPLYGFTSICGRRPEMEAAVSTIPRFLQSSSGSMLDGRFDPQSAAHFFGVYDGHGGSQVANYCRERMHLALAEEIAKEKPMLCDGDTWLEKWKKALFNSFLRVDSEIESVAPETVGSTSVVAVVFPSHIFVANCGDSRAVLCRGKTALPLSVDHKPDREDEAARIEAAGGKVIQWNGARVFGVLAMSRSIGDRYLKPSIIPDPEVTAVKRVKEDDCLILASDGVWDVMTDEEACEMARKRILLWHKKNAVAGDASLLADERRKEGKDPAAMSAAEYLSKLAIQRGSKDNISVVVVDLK
S150Q: 19.9%
S59A: 59.8%
S42G: 69.8%
S117Q: 11.9%
C60Q: 12.2%
I105Q: 12.4%
T173K: -6.92%
I52N: 48.3%
R155H: 10.9%
E4H: 62.7%
E14Y: 9.03%
R24G: 16%
G102K: 11.4%

Series 4 — method: protein-binding microarray; form: double-stranded DNA, one strand shown; sample: in vitro; concentration: 0.8 µM; setting: whole 60-bp probe, no competitor; direction: higher = stronger binding; endpoint: fluorescence intensity; shared flanks, not repeated: … GTCTTGATTCGCTTGACGCTGCTG
Target: Centromere-binding protein 1, full length, N-terminal tag (CBF1, Saccharomyces cerevisiae, UniProt P17106, residues 1-351)
UniProt P17106, sequence (whole entry, looked up): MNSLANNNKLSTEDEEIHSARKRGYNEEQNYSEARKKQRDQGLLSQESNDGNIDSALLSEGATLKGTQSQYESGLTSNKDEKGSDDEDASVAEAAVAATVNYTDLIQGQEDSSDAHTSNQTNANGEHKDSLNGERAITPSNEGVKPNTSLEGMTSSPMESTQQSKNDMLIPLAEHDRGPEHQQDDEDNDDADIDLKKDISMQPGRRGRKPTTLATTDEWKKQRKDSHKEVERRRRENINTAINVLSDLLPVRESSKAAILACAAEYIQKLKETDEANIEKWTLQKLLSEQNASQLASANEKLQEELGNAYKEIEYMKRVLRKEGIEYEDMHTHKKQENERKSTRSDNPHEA
CTATCGGAGAAAAGTCACGTGCAAAAAGAAATCTTC: 16600 a.u.
TGTACGAAGCTATATGATGCAACTATAGTAGTTAGG: 524 a.u.
GAAAGTTTATACCCCCACGTATTTTCCTCCGCATAG: 515 a.u.
GAACGTGCTGAGATCTACCTGACGGGCGGTGAATAG: 491 a.u.
CTACCCTTCCCCTATCAACTGATTGAAGAATGCTTC: 545 a.u.
CTATGTGTGCGACGACACATGATCATATGGCATTTC: 2080 a.u.
GAAAGAAGCGTACGTCACGGCAAAACCAGCGACTAG: 533 a.u.
CCTAACTACTATAAGGTCATGAGATAGCTTCGTACA: 696 a.u.
CCTAACTACTATAAGACCACCACATAGCTTCGTACA: 555 a.u.
GAATTGGAAAAATGTCACGCGTAAAAATTAGACTAG: 1360 a.u.
CTATTAGTAGAACCTCGTGAAACTTACATTTACTTC: 557 a.u.
GAAGTTATCAATTATAACGTGAAAGGTTTTGCATAG: 582 a.u.
GAAGAAAACGCATATCAACTGATATATATACACTAG: 556 a.u.
TGTACGAAGCTATACTACACCTGTATAGTAGTTAGG: 492 a.u.
CTAATTATAGAGAGTCACGCTGAACACGCGGCGTTC: 856 a.u.
GAAAATACGTATCATCATATGATTTCCCCCCTGTAG: 618 a.u.
CTAATTCATGATAGTAAACAGGTGAATTAAGATTTC: 539 a.u.

Excerpt of the above (series 1):
AGGAGCACAAGAGAGGAGCCUGUGGCCCCAUGCAGAUGAAAAGGACGGGCAGGGUCUCCUGAGCAGCAGGUGGCUCGAGGCGGUUAGCAGGCUCCAGCAGCUCCCUUCUU: 0.955
CUGUCUUUUUUACUUGUCUCAUUUUCUUUCACAGCACUGAGGUCUCACCAAAUUUUCUAAUUUUUAUUGUUAAUGACCGUUUUACUAUUAAAUAUAUGCAUGAUCCAAGC: 1.74
